Assay results collected from several papers.
Protocols differ between the studies behind these lines.
Matrix: plasma

`COC(=O)c1ccc2c(c1)NC(=O)/C2=C(\Nc1ccc2c(c1)CCN2C(=O)CN1CCOCC1)c1ccccc1` has a half-life of 1.3 h (Sprague-Dawley rat; intravenous, 2 mg/kg).
The half-life of `Cc1nc(N[C@@H](C)c2ccc(-c3nc(C4CC4)no3)cc2)c2cc(C)oc2n1` is reported as 9.7 h (rat; oral, 10 mg/kg).
The half-life of `C[Si](C)(C)C[C@H](CN)CC(=O)O` is reported as 2.19 h (male Sprague-Dawley rat; oral, 30 mg/kg, single dose).
With `Cc1cccc(Cn2ncc3c4cc(F)c(CN(C)C)cc4n(C)c3c2=O)n1` the half-life was 9.9 h (rat; oral, 10 mg/kg).
With `C[Si]1(C[C@H](CN)CC(=O)O)CCCC1` the half-life was 1.51 h (male Sprague-Dawley rat; oral, 30 mg/kg, single dose).
`COc1ccc(S(=O)(=O)N2CCc3ccccc3C2)cc1N1CCN(C(=O)c2ccc(F)cc2C(F)(F)F)CC1` has a half-life of 0.72 h (rat; intravenous, 10 mg/kg, single dose).
`Cn1cc(-c2cc(N3CCCCS3(=O)=O)ccc2N[C@H]2CC[C@H](C)CC2)c2cc[nH]c2c1=O` (stereo in doubt) has a half-life of 1.06 h (Sprague-Dawley rat; intravenous, 1 mg/kg).
`CC12CC3CC(C)(C1)CC(NC(=O)Nc1ccc(C(=O)N4CCCC(C(N)=O)C4)cc1)(C3)C2` (centres unmarked) has a half-life of 2.66 h (Sprague-Dawley rat; intravenous, 10 mg/kg).
With `C[Si]1(C)CNC(=O)c2ccccc21` the half-life was 1.9 h (rat; intravenous, 1 mg/kg, single dose).
`CSCOC1C(=O)C2(C)C(OCSC)CC3OCC3(OC(C)=O)C2C(OC(=O)c2ccccc2)C2(O)CC(OC(=O)C(O)C(C=C(C)C)NC(=O)OC(C)(C)C)C(C)=C1C2(C)C` (centres unmarked) has a half-life of 8 h (male Sprague-Dawley rat; intravenous, 2 mg/kg).
For `COc1ccc2c(c1OCc1ccccc1)C[C@@H](C(=O)O)N(c1nc3ccc(F)cc3o1)C2`, the half-life was 3.5 h (male Sprague-Dawley rat; intravenous, 1 mg/kg).
With `Cc1ccc(OCC(=O)N(Cc2cccs2)c2ccn[nH]2)cc1` the half-life was 0.3 h (female Sprague-Dawley rat; intravenous, 1 mg/kg, single dose).
`C#Cc1cccc(Nc2ncnc3cc(OC)c(OCCCN4CCOCC4)cc23)c1` gave a half-life of 3.73 h (Sprague-Dawley rat; oral, 40 mg/kg).
For `Cc1cc(/C=C/C#N)cc(C)c1Oc1nc(NC2CCN(Cc3ccc(P(C)(C)=O)cc3)CC2)nc2ccsc12`, the half-life was 1.32 h (male Sprague-Dawley rat; oral, 10 mg/kg).
For `O=C(N[C@@H](CC1CCCCC1)C(=O)N[C@@H](C[C@H]1CCNC1=O)C(=O)C(=O)NC1CC1)OCc1cccc(Cl)c1`, the half-life was 7.52 h (female Sprague-Dawley rat; intravenous, 10 mg/kg).
The half-life of `N[C@@H](COc1ccccc1C(F)(F)F)c1ccccc1` is reported as 1.2 h (rat; intravenous, 5 mg/kg).
`Cc1cc(N)nc(CC2CNCC2OCCNCC(F)(F)c2cccc(F)c2)c1` (centres unmarked) has a half-life of 3.7 h (rat; oral, 5 mg/kg).
The half-life of `CC(C)(C)C(=O)Nc1ccc2[nH]c(CN3CCC(N(CCCN4CCOCC4)CC4OC(n5cnc6c(N)ncnc65)C(O)C4O)CC3)nc2c1` (centres unmarked) is reported as 1.93 h (male Sprague-Dawley rat; intraperitoneal, 20 mg/kg).
`COc1cc2ncnc(Oc3ccc(Nc4nccc5[nH]cc(-c6ccc(F)cc6)c(=O)c45)cc3F)c2cc1OC` gave a half-life of 16.8 h (male Sprague-Dawley rat; intravenous, 5 mg/kg).
`CNC(=O)N[C@]1(C)CCC[C@@]2(C)C3CC[C@@]4(C)C[C@]3(CCC21)CC4=O` (single isomer, unassigned) has a half-life of 0.591 h (male Sprague-Dawley rat; intravenous, 2 mg/kg).

Excerpt of the above:
For `Cc1cc(/C=C/C#N)cc(C)c1Oc1nc(NC2CCN(Cc3ccc(P(C)(C)=O)cc3)CC2)nc2ccsc12`, the half-life was 1.32 h (male Sprague-Dawley rat; oral, 10 mg/kg).
